Published values collected from several papers.
Each numbered part is a random draw from the data of one study; scales do not carry over between parts.

Set 1
Target: Histone acetyltransferase KAT6A, winged helix 2, GST fusion (KAT6A, Homo sapiens, UniProt Q92794, residues 85-181)
Technique: protein binding microarray
Molecule type: double-stranded DNA, one strand shown
Sample: in vitro
Concentration: not given
Notes: 8-mer, flanks averaged, mean of 2 arrays, mostly near background
Baseline: not given
Direction: higher = stronger binding
Endpoint: E-score
Construct (chain): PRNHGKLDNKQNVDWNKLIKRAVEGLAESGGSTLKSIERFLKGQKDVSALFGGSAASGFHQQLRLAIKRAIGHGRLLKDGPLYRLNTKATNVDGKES
CTACCCTA: -0.219
ACCGACGG: 0.171
GTGACTCA: -0.0766
CCCGTTTC: 0.021
ACGCAGCA: -0.0265
TCCACTCA: 0.0428

Set 2
Target: Sal-like protein 4, full length isoform B (SALL4, Homo sapiens, UniProt Q9UJQ4-2, residues 1-616)
Technique: universal PBM
Molecule type: double-stranded DNA, one strand shown
Sample: in vitro
Concentration: not given
Notes: 8-mer, flanks averaged, mean of replicates
Direction: higher = stronger binding
Endpoint: E-score
Residues (chain): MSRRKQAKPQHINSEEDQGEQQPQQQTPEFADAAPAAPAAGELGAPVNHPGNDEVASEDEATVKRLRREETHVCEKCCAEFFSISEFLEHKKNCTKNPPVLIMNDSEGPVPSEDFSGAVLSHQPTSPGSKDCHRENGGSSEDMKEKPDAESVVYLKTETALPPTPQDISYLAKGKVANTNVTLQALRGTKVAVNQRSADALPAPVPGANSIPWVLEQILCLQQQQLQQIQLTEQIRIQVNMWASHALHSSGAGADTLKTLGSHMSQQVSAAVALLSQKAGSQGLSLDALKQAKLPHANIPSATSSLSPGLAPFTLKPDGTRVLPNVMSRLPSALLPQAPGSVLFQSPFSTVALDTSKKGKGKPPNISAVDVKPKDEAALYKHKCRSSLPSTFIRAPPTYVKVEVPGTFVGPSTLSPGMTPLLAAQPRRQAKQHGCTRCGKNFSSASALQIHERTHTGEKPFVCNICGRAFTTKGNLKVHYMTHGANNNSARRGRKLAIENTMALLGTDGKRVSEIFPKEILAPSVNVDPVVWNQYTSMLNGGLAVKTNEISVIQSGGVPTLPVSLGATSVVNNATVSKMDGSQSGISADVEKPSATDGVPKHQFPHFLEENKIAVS
CTACACAA: 0.172
CCGACTAG: -0.273
ATTAAAGC: 0.22
AGCTCCGA: -0.0409
CGACCCAG: -0.232

Set 3
Target: Interferon regulatory factor 5, full length, phosphomimetic (IRF5, Homo sapiens, UniProt Q13568-2, residues 1-514, K96S/S451D/S453D/S456D/S462D)
Technique: protein-binding microarray
Molecule type: double-stranded DNA, one strand shown
Sample: in vitro
Concentration: 250 nM
Notes: 60-bp whole probe
Together with: salmon DNA 0.4 mg/ml
Baseline: random background probes
Direction: higher = stronger binding
Endpoint: log fluorescence
GCCTAGCACTTAGGTATCGGGTATCGATTAGTGCTAGTCTTGATTCGCTTGACGCTGCTG: 6.42 z-score
GCCTAGCACGACGGTCTCCTTATCCTGACGTGCTAGGTCTTGATTCGCTTGACGCTGCTG: 0.01 z-score
GCCTAGCACGCATCTCGGAGATCTCGAAGCGTGCTAGTCTTGATTCGCTTGACGCTGCTG: -0.149 z-score
GCCTAGCACGACGGTTTCAGTATCGGGACGTGCTAGGTCTTGATTCGCTTGACGCTGCTG: 5.5 z-score

Other studies, line by line
PhoQ, residues 284 288 289 292 302 303 ASVMEA  fold induction (PhoP, residues 12 14 15 18 19 AWHSL (Escherichia coli, UniProt P23836); Sort-seq, item: YFP reporter; E. coli; PhoQ-PhoP variant library, together with: 10 µM Mg2+; baseline: high Mg2+ state, higher = stronger signaling): 3.33

A few entries again (other studies, line by line):
PhoQ, residues 284 288 289 292 302 303 ASVMEA  fold induction (PhoP, residues 12 14 15 18 19 AWHSL (Escherichia coli, UniProt P23836); Sort-seq, item: YFP reporter; E. coli; PhoQ-PhoP variant library, together with: 10 µM Mg2+; baseline: high Mg2+ state, higher = stronger signaling): 3.33
